Assay results gathered from unrelated publications.
Numbered parts are unrelated; each lists some results of a single study.
Chain of UniProt P29317 (whole entry, looked up): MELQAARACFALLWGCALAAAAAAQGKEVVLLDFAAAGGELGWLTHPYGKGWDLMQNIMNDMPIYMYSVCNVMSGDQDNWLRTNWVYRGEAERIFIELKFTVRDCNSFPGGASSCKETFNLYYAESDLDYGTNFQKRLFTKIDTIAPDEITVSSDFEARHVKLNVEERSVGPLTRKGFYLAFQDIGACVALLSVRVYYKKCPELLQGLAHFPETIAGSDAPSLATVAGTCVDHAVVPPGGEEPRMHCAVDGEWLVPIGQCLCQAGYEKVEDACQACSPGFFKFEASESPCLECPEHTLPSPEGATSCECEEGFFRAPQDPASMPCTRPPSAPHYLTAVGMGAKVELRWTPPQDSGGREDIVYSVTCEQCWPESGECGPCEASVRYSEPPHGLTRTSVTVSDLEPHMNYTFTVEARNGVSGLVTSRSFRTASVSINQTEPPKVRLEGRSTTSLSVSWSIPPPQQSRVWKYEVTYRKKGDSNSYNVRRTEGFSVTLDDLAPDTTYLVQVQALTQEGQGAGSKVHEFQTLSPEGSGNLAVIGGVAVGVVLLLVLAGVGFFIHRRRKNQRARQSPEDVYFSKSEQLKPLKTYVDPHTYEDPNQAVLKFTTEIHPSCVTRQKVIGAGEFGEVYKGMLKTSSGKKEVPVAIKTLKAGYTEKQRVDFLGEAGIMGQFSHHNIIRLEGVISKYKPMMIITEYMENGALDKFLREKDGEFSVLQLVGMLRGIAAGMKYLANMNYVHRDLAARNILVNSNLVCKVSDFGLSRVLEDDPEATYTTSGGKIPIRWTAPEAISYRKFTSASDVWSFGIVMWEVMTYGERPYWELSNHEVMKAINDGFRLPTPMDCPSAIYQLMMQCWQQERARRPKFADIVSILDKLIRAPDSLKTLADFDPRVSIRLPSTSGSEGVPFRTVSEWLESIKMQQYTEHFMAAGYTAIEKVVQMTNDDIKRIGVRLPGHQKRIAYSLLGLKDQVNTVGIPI
Chain of UniProt O75582 (whole entry, looked up): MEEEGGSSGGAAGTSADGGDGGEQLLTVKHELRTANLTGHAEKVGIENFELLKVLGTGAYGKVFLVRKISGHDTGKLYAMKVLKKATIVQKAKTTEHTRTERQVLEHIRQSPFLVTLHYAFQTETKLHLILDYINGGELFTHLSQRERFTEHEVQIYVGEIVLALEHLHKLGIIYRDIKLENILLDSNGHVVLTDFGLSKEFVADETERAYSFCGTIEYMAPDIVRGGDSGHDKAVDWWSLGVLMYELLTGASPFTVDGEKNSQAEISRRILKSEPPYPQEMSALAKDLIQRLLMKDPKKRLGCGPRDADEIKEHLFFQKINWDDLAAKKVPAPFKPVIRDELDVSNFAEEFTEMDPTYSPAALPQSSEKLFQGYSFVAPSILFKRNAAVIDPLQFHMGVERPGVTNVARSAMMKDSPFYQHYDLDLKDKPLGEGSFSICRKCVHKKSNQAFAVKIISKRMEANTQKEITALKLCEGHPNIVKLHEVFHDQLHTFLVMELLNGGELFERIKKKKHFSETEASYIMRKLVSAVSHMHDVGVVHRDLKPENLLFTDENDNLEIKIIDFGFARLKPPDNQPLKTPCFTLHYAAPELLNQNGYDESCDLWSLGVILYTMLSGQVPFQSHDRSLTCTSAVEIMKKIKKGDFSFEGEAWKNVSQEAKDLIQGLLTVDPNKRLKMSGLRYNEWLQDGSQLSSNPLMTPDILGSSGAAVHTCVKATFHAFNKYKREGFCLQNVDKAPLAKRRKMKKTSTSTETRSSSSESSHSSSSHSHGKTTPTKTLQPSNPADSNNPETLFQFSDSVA
Chain of UniProt Q16816 (whole entry, looked up): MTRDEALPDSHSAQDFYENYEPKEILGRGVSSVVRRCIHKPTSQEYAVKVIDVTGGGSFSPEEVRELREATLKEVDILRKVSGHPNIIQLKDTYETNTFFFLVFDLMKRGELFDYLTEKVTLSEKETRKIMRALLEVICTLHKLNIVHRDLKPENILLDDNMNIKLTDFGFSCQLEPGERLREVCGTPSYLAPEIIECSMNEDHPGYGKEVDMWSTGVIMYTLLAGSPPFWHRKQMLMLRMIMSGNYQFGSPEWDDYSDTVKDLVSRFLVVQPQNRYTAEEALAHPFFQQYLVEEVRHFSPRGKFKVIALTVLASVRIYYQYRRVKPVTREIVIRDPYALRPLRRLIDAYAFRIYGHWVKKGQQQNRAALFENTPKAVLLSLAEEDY
Chain of UniProt P80192 (whole entry, looked up): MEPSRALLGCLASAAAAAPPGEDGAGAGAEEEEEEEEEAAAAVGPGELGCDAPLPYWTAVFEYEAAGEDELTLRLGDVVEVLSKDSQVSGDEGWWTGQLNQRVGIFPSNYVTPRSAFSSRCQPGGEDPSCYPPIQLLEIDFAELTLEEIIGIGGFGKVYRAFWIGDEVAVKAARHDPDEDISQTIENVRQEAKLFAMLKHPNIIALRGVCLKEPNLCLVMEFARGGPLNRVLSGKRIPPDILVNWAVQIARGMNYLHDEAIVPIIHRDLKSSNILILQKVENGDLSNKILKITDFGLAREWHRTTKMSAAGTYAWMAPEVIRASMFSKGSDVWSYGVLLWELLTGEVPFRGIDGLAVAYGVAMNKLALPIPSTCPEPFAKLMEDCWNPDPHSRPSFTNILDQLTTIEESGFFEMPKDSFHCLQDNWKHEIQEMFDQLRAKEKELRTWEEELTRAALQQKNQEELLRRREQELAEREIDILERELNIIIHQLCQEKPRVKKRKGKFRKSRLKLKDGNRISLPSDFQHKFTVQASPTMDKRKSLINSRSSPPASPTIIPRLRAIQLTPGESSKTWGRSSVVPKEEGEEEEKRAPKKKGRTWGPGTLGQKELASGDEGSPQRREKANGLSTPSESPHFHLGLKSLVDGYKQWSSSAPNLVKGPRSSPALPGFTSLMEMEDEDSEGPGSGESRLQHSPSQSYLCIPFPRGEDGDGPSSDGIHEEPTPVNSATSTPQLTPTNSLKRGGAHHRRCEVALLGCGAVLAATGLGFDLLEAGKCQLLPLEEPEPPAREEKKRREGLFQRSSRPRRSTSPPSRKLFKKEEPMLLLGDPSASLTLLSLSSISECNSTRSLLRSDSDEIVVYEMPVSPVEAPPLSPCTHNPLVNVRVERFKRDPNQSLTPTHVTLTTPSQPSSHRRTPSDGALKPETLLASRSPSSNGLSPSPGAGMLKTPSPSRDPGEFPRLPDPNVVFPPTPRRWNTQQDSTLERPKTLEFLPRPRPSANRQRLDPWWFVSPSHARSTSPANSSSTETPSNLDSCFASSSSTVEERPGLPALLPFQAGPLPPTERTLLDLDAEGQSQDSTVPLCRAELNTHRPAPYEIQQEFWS
Chain of UniProt Q6XUX3 (whole entry, looked up): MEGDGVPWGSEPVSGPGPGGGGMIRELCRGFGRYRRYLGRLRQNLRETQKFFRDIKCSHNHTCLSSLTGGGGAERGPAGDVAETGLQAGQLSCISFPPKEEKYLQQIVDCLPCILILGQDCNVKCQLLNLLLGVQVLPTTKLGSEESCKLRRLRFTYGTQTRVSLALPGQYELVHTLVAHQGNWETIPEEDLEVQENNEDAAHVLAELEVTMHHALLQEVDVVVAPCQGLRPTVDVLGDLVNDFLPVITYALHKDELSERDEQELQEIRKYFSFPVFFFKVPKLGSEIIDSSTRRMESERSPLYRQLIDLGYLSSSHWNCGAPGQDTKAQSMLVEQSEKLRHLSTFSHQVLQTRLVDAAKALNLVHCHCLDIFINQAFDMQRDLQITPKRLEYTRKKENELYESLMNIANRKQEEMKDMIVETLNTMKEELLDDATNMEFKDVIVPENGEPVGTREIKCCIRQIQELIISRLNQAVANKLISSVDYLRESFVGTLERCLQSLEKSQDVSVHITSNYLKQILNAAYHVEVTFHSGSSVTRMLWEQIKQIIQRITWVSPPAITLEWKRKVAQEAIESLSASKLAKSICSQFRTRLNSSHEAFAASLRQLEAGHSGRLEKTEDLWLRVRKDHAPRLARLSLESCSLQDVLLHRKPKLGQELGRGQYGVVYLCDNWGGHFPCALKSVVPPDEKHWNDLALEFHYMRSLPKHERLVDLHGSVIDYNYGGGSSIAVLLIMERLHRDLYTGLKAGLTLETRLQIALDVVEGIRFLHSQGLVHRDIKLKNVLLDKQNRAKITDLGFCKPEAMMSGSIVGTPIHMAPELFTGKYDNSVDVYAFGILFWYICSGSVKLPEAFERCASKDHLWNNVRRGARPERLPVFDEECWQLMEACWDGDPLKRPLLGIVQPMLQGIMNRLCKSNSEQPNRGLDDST
Chain of UniProt Q6P2M8 (whole entry, looked up): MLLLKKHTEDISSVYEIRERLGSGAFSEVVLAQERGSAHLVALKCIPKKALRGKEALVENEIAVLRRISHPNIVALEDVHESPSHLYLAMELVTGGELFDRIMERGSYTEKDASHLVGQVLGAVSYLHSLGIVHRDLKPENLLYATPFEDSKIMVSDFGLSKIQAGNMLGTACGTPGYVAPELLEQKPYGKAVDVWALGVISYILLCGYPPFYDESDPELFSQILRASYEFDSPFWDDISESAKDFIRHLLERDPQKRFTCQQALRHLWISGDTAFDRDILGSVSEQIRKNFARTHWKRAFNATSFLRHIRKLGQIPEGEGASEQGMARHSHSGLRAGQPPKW

Set 1
Target: Interferon regulatory factor 7, full length, phosphomimetic (IRF7, Homo sapiens, UniProt Q92985, residues 1-503, S471D/S472D/S475D/S476D/S477D/S483D/S484D/S487D)
Chain of UniProt Q92985 (whole entry, unmodified, looked up): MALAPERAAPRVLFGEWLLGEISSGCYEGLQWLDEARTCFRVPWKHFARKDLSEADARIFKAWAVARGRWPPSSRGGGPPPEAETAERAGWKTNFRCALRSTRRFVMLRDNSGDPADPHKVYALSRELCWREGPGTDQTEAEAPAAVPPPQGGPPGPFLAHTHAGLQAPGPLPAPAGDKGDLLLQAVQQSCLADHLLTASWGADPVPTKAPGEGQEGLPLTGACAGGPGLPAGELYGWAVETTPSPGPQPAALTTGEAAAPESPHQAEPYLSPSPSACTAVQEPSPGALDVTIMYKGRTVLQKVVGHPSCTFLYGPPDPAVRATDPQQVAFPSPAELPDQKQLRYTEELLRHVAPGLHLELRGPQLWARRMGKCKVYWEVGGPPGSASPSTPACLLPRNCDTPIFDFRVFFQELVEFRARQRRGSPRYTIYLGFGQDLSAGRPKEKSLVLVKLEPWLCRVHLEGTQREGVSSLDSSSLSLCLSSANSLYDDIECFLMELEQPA
Method: protein-binding microarray
Form: double-stranded DNA, one strand shown
Matrix: in vitro
Concentration: 2200 nM top
Notes: 60-bp whole probe
With: salmon DNA 0.4 mg/ml
Reference: random background probes
Reading: higher = stronger binding
Shared flanks, not repeated: GCCTAGCAC … GTCTTGATTCGCTTGACGCTGCTG
| Oligonucleotide | fitted relative affinity [z-score] |
| --- | --- |
| TCATCTTTCCTTACTTCACTGTGCTAG | 2.74 |
| TTAGATTTCCTTTTCCTTTAGTGCTAG | 4.4 |
| CTGCCTGGCCAAGCCCAGATGTGCTAG | -0.915 |
| TTAGGAGTGGGTTTCGGTTAGTGCTAG | 3.86 |
| TTAGAGTTCGGGTATCGATTAGTGCTA | 0.16 |
| GACGATTTCAGTTCCGCGACGTGCTAG | 2.05 |
| GACGATATCTGTATCGAGACGTGCTAG | 0.472 |
| AACGGACTGCTTTTCCTGACGTGCTAG | 0.816 |

Set 2
Target: RING finger protein unkempt homolog, zinc fingers 1-6, GST-SBP tag (UNK, Homo sapiens, UniProt Q9C0B0, residues 30-357)
Method: RNA Bind-n-Seq
Form: RNA
Matrix: in vitro
Concentration: not given
Notes: RNA with constant flanks, human-mouse chimeric sites, ends assumed
Reference: input RNA pool
Reading: higher = stronger binding
Shared flanks, not repeated: GGGAGUUCUACAGUCCGACGAUC … CAACAGAGGAUUGAGCAUCA
Residues (chain): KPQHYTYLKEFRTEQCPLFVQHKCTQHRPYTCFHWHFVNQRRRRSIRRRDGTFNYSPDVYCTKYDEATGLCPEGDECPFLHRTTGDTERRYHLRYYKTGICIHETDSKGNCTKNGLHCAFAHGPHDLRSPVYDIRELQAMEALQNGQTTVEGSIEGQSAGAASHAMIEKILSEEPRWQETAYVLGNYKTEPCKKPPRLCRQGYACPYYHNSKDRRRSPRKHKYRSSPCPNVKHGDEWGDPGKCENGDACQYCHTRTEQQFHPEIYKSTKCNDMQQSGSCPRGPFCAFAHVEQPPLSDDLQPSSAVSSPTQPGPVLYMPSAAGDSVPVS
| Oligonucleotide | bound/input enrichment [ratio] |
| --- | --- |
| GUGACUGGUGUUAAGAUUUACCCUCAGCAAAGAAGUGCAGUAGUCACCAUAAUUCCAUCUGUGGUGAAUGCCAAUCAGAUUGUGGAGCUGGUCCCAGACCUCAGUUUAGACAUGGGAACU | 0.291 |
| CUGUGUGUGCUGAAUAAAUGGCUUGUAAAGAAGUUUUCCAAGUUGUAAACCCAUGCUUCCCUUAGAGUUGCUGCAAAAUGUUCUUCCUGAUAUUGAUUUUAUUUGUUAACUGAAGGUCUC | 0.624 |
| GGACAUCUGUCAAAUUGUAUUUCCCGUGUGAAACAAGUGAACACUCUGAUACACUUCAUCUGCUUGUACAUCUGUAUUUGUAUAAUAUGUAAAUAUGUUAAUCCAAGCAAUGUGUCACUU | 0.198 |
| UGACAAGGGCACUGCAGAGCCAUGCCUUUCCUUGACAUACAGAAAAAGCUGGGCAUCAGCCUGGACCGGCACUUUAUGUUCCUAAGCGGUGAACAGCCCUACAAGAUCGCCGCUCGGUGC | 0.0757 |
| GCACUUGGGAAUGUAAUCAGCGCCUUGGGGGACAAGAGCAAGAGAGCCACCCAUGUCCCUUACAGAGACUCUAAGCUGACAAGACUCUUGCAGGAUUCCCUUGGGGGUAAUAGCCAAACC | 0.168 |
| GCCACCAGAUCCCAGAAACAUGACUCUUGCUGCCUACAAAGAGAAGAUGAAGGAGCUCCCGCUGGUGUCCUUGUUCUGCUCCUGCUUCCUGGCCGAUCCCCUGAAUAAAUCAUCCUACAA | 0.372 |
| GGACAUCUUGUCAGGAUUUAUGUUCCUGUGAAACAAGUGAACACUCUGAUACACUUCAUCUGCUUGUACAUCUGUAUGAUAGAGAAAUGUAAAUAUGUUAAUCCAAGAUGAAUUCAACUU | 0.155 |
| UAAAUUAGGGCUGCCGUCCGUUCUCACUCCCUGGGCUGCGGAAAGCCAGAAGAUUUUAUCUAGCUUAAACCAGGCUGCUGGUGUUCCCUCUUUUUUUCCACGAGGGUGUUUUUGGCUGCA | 0.359 |

Set 3
Structure (SMILES): NC(=O)c1ccc(-c2nc(-c3ccc4c(c3)OCCO4)c(-c3ccccn3)[nH]2)cc1
Observed: enzyme activity
Mode: inhibitor
Concentration: 0.5 µM
Reference: control
| target | remaining activity |
| --- | --- |
| Calcium/calmodulin-dependent protein kinase type 1B (PNCK, Homo sapiens, UniProt Q6P2M8) | 104% |
| Dual specificity mitogen-activated protein kinase kinase 1 (MAP2K1, Homo sapiens, UniProt Q02750) | 95.3% |
| Vascular endothelial growth factor receptor 2 (KDR, Homo sapiens, UniProt P35968) | 96% |
| Rho-associated protein kinase 1 (ROCK1, Homo sapiens, UniProt Q13464) | 98.1% |

Set 4
SMILES: COCCOc1nc(-c2ccc(Cl)nc2)nc2c1CN(C(=O)c1ncn3ccccc13)CC2
Concentration: 0.1 µM
| target | observed | method | remaining binding |
| --- | --- | --- | --- |
| Serine/threonine-protein kinase MRCK gamma (CDC42BPG, Homo sapiens, UniProt Q6DT37) | – | competition binding | 100% |
| Bone morphogenetic protein receptor type-2 (BMPR2, Homo sapiens, UniProt Q13873) | cell-free assay | competition with immobilised ligand | 100% |
| Megakaryocyte-associated tyrosine-protein kinase (MATK, Homo sapiens, UniProt P42679) | cell-free assay | competition with immobilised ligand | 100% |
| Mitogen-activated protein kinase kinase kinase 9 (MAP3K9, Homo sapiens, UniProt P80192) | cell-free assay | competition with immobilised ligand | 100% |
| Ephrin type-A receptor 2 (EPHA2, Homo sapiens, UniProt P29317) | cell-free assay | competition with immobilised ligand | 100% |
| Serine/threonine-protein kinase 36 (STK36, Homo sapiens, UniProt Q9NRP7) | cell-free assay | competition with immobilised ligand | 79% |
| Tyrosine-protein kinase SYK (SYK, Homo sapiens, UniProt P43405) | cell-free assay | competition with immobilised ligand | 100% |
| Ribosomal protein S6 kinase alpha-2, N-terminal kinase domain (RPS6KA2, Homo sapiens, UniProt Q15349) | cell-free assay | competition with immobilised ligand | 100% |
| Dual specificity mitogen-activated protein kinase kinase 2 (MAP2K2, Homo sapiens, UniProt P36507) | cell-free assay | competition with immobilised ligand | 100% |
| Ribosomal protein S6 kinase alpha-5, N-terminal kinase domain (RPS6KA5, Homo sapiens, UniProt O75582) | cell-free assay | competition with immobilised ligand | 100% |
| Dual serine/threonine and tyrosine protein kinase (DSTYK, Homo sapiens, UniProt Q6XUX3) | cell-free assay | competition with immobilised ligand | 100% |
| Phosphorylase b kinase gamma catalytic chain, skeletal muscle/heart isoform (PHKG1, Homo sapiens, UniProt Q16816) | cell-free assay | competition with immobilised ligand | 100% |
| Epidermal growth factor receptor (EGFR, Homo sapiens, UniProt P00533, del752-759) | cell-free assay | competition with immobilised ligand | 80% |
| Serine/threonine-protein kinase PAK 6 (PAK6, Homo sapiens, UniProt Q9NQU5) | cell-free assay | competition with immobilised ligand | 100% |

Excerpt of the above (set 4):
| target | observed | method | remaining binding |
| --- | --- | --- | --- |
| Mitogen-activated protein kinase kinase kinase 9 (MAP3K9, Homo sapiens, UniProt P80192) | cell-free assay | competition with immobilised ligand | 100% |
| Serine/threonine-protein kinase MRCK gamma (CDC42BPG, Homo sapiens, UniProt Q6DT37) | – | competition binding | 100% |
